Experimental data pooled from the literature.
Compare with care: the assays were run in different laboratories.
Organism: Enterobacter cloacae

CN1/C(=C/C=C/c2cc(-c3ccccc3)cc(-c3ccccc3)[o+]2)C(C)(C)c2ccccc21
MIC (microbial growth, broth dilution; ATCC13047): 32 µg/mL

CC(C)S[C@H]1[C@H](O)[C@@H](N)[C@@H](O[C@H]2[C@H](O[C@@H]3O[C@H](CO)[C@@H](O[C@H]4O[C@@H](CN)[C@@H](O)[C@H](O)[C@H]4N)[C@H]3O)[C@@H](O)[C@H](N)C[C@@H]2N)O[C@@H]1CO
MIC (AG290): 8 µg/mL

CN1CCC(NCCC2(Cc3ccc(Cl)cc3)CCCCC2)CC1
MIC (microbial growth; 10 h): 200 µM

CC[P+](CC)(CC)[Au-][S][C@@H]1O[C@H](COC(C)=O)[C@@H](OC(C)=O)[C@H](OC(C)=O)[C@H]1NC(=O)C(Cl)(Cl)Cl
MIC (NCTC 13405): > 328 µM

c1ccc(CN2CCOCCOCCN(CCCCCCCCCCN3CCOCCOCCN(CCCCCCCCCCN4CCOCCOCCN(Cc5ccccc5)CCOCCOCC4)CCOCCOCC3)CCOCCOCC2)cc1
MIC (microbial growth): 26 µM

CC(C)C[C@H](NC(=O)[C@H](CC(N)=O)NC(=O)[C@H](CCCNC(=N)N)NC(=O)[C@@H](CC(C)C)NC(=O)[C@H](Cc1ccccc1)NC(=O)[C@H](CC(=O)O)NC(=O)[C@H](CCCCN)NC(=O)[C@@H](CC(C)C)NC(=O)[C@H](CCCNC(=N)N)NC(=O)[C@H](CCC(N)=O)NC(=O)[C@@H](NC(=O)[C@@H](CC(C)C)NC(=O)[C@H](CCCNC(=N)N)NC(=O)[C@H](CCCCN)NC(=O)[C@H](Cc1ccc(-c2ccccc2)cc1)NC(=O)CN)C(C)C)C(=O)N[C@H](C(N)=O)C(C)C
MIC (broth microdilution; B2366-12): 12.5 µM

c1ccc(CN2CCOCCOCCN(CCCCCCCCCCCCCCN3CCOCCOCCN(CCCCCCCCCCCCCCN4CCOCCOCCN(Cc5ccccc5)CCOCCOCC4)CCOCCOCC3)CCOCCOCC2)cc1
MIC (meropenem-resistant): 12 µM

CCS(=O)(=O)[C@H]1[C@H](O)[C@@H](N)[C@@H](O[C@H]2[C@H](O[C@@H]3O[C@H](CO)[C@@H](O[C@H]4O[C@@H](CN)[C@@H](O)[C@H](O)[C@H]4N)[C@H]3O)[C@@H](O)[C@H](N)C[C@@H]2N)O[C@@H]1CO
MIC (AG290): > 128 µg/mL

CC(C)C[C@H](NC(=O)[C@H](CC(N)=O)NC(=O)[C@H](CCCNC(=N)N)NC(=O)[C@@H](CC(C)C)NC(=O)[C@H](Cc1ccccc1)NC(=O)[C@H](CC(=O)O)NC(=O)[C@H](CCCCN)NC(=O)[C@@H](CC(C)C)NC(=O)[C@H](CCCNC(=N)N)NC(=O)[C@H](CCC(N)=O)NC(=O)[C@@H](NC(=O)[C@@H](CC(C)C)NC(=O)[C@H](CCCNC(=N)N)NC(=O)[C@H](CCCCN)NC(=O)[C@H](Cc1ccc(C(F)(F)F)cc1)NC(=O)CN)C(C)C)C(=O)N[C@H](C(N)=O)C(C)C
MIC (broth microdilution; B2366-12): 25 µM

NC[C@@H]1O[C@H](O[C@H]2[C@@H](O)[C@H](O[C@@H]3[C@@H](O)[C@H](N)C[C@H](N)[C@H]3O[C@H]3O[C@H](CO)[C@@H](SCCF)[C@H](O)[C@H]3N)O[C@@H]2CO)[C@H](N)[C@@H](O)[C@@H]1O
MIC (AG290): 4 µg/mL

CC(C)C[C@H](NC(=O)[C@H](CC(N)=O)NC(=O)[C@H](CCCNC(=N)N)NC(=O)[C@@H](CC(C)C)NC(=O)[C@H](Cc1ccc2ccccc2c1)NC(=O)[C@H](CC(=O)O)NC(=O)[C@H](CCCCN)NC(=O)[C@@H](CC(C)C)NC(=O)[C@H](CCCNC(=N)N)NC(=O)[C@H](CCC(N)=O)NC(=O)[C@@H](NC(=O)[C@@H](CC(C)C)NC(=O)[C@H](CCCNC(=N)N)NC(=O)[C@H](CCCCN)NC(=O)[C@H](Cc1ccc(C(F)(F)F)cc1)NC(=O)CN)C(C)C)C(=O)N[C@H](C(N)=O)C(C)C
MIC (broth microdilution; B2366-12): 6.2 µM

CO[C@@H](C(N)=O)[C@H](NC(=O)c1ccc(NC(=O)c2ccc([N+](=O)[O-])cc2)cc1)C(=O)Nc1ccc(C(=O)Nc2ccc(C(=O)Nc3ccc(C(=O)O)cc3)c(O)c2OC(C)C)cc1
MIC (microbial growth; DSM30054): > 64 µg/mL

For quick reference, copied from above:
c1ccc(CN2CCOCCOCCN(CCCCCCCCCCN3CCOCCOCCN(CCCCCCCCCCN4CCOCCOCCN(Cc5ccccc5)CCOCCOCC4)CCOCCOCC3)CCOCCOCC2)cc1
MIC (microbial growth): 26 µM
